Published values gathered from unrelated publications.
Numbers after ± are the reported error.
B1: ceruloplasmin; sequence looked up; chain KEKHYYIGIIETTWDYASDHGEKKLISVDTEHSNIYLQNGPDRIGRLYKKALYLQYTDETFRTTIEKPVWLGFLGPIIKAETGDKVYVHLKNLASRPYTFHSHGITYYKEHEGAIYPDNTTDFQRADDKVYPGEQYTYMLLATEEQSPGEGDGNCVTRIYHSHIDAPKDIASGLIGPLIICKKDSLDKEKEKHIDREFVVMFSVVDENFSWYLEDNIKTYCSEPEKVDKDNEDFQESNRMYSVNGYTFGSLPGLSMCAEDRVKWYLFGMGNEVDVHAAFFHGQALTNKNYRIDTINLFPATLFDAYMVAQNPGEWMLSCQNLNHLKAGLQAFFQVQECNKSSSKDNIRGKHVRHYYIAAEEIIWNYAPSGIDIFTKENLTAPGSDSAVFFEQGTTRIGGSYKKLVYREYTDASFTNRKERGPEEEHLGILGPVIWAEVGDTIRVTFHNKGAYPLSIEPIGVRFNKNNEGTYYSPNYNPQSRSVPPSASHVAPTETFTYEWTVPKEVGPTNADPVCLAKMYYSAVEPTKDIFTGLIGPMKICKKGSLHANGRQKDVDKEFYLFPTVFDENESLLLEDNIRMFTTAPDQVDKEDEDFQESNKMHSMNGFMYGNQPGLTMCKGDSVVWYLFSAGNEADVHGIYFSGNTYLWRGERRDTANLFPQTSLTLHMWPDTEGTFNVECLTTDHYTGGMKQKYTVNQCRRQSEDSTFYLGERTYYIAAVEVEWDYSPQREWEKELHHLQEQNVSNAFLDKGEFYIGSKYKKVVYRQYTDSTFRVPVERKAEEEHLGILGPQLHADVGDKVKIIFKNMATRPYSIHAHGVQTESSTVTPTLPGETLTYVWKIPERSGAGTEDSACIPWAYYSTVDQVKDLYSGLIGPLIVCRRPYLKVFNPRRKLEFALLFLVFDENESWYLDDNIKTYSDHPEKVNKDDEEFIESNKMHAINGRMFGNLQGLTMHVGDEVNWYLMGMGNEIDLHTVHFHGHSFQYKHRGVYSSDVFDIFPGTYQTLEMFPRTPGIWLLHCHVTDHIHAGMETTYTVLQNEDTKSG
B2: α2-macroglobulin; sequence looked up; chain SVSGKPQYMVLVPSLLHTETTEKGCVLLSYLNETVTVSASLESVRGNRSLFTDLEAENDVLHCVAFAVPKSSSNEEVMFLTVQVKGPTQEFKKRTTVMVKNEDSLVFVQTDKSIYKPGQTVKFRVVSMDENFHPLNELIPLVYIQDPKGNRIAQWQSFQLEGGLKQFSFPLSSEPFQGSYKVVVQKKSGGRTEHPFTVEEFVLPKFEVQVTVPKIITILEEEMNVSVCGLYTYGKPVPGHVTVSICRKYSDASDCHGEDSQAFCEKFSGQLNSHGCFYQQVKTKVFQLKRKEYEMKLHTEAQIQEEGTVVELTGRQSSEITRTITKLSFVKVDSHFRQGIPFFGQVRLVDGKGVPIPNKVIFIRGNEANYYSNATTDEHGLVQFSINTTNVMGTSLTVRVNYKDRSPCYGYQWVSEEHEEAHHTAYLVFSPSKSFVHLEPMSHELPCGHTQTVQAHYILNGGTLLGLKKLSFYYLIMAKGGIVRTGTHGLLVKQEDMKGHFSISIPVKSDIAPVARLLIYAVLPTGDVIGDSAKYDVENCLANKVDLSFSPSQSLPASHAHLRVTAAPQSVCALRAVDQSVLLMKPDAELSASSVYNLLPEKDLTGFPGPLNDQDNEDCINRHNVYINGITYTPVSSTNEKDMYSFLEDMGLKAFTNSKIRKPKMCPQLQQYEMHGPEGLRVGFYESDVMGRGHARLVHVEEPHTETVRKYFPETWIWDLVVVNSAGVAEVGVTVPDTITEWKAGAFCLSEDAGLGISSTASLRAFQPFFVELTMPYSVIRGEAFTLKATVLNYLPKCIRVSVQLEASPAFLAVPVEKEQAPHCICANGRQTVSWAVTPKSLGNVNFTVSAEALESQELCGTEVPSVPEHGRKDTVIKPLLVEPEGLEKETTFNSLLCPSGGEVSEELSLKLPPNVVEESARASVSVLGDILGSAMQNTQNLLQMPYGCGEQNMVLFAPNIYVLDYLNETQQLTPEIKSKAIGYLNTGYQRQLNYKHYDGSYSTFGERYGRNQGNTWLTAFVLKTFAQARAYIFIDEAHITQALIWLSQRQKDNGCFRSSGSLLNNAIKGGVEDEVTLSAYITIALLEIPLTVTHPVVRNALFCLESAWKTAQEGDHGSHVYTKALLAYAFALAGNQDKRKEVLKSLNEEAVKKDNSVHWERPQKPKAPVGHFYEPQAPSAEVEMTSYVLLAYLTAQPAPTSEDLTSATNIVKWITKQQNAQGGFSSTQDTVVALHALSKYGAATFTRTGKAAQVTIQSSGTFSSKFQVDNNNRLLLQQVSLPELPGEYSMKVTGEGCVYLQTSLKYNILPEKEEFPFALGVQTLPQTCDEPKAHTSFQISLSVSYTGSRSASNMAIVDVKMVSGFIPLKPTVKMLERSNHVSRTEVSSNHVLIYLDKVSNQTLSLFFTVLQDVPVRDLKPAIVKVYDYYETDEFAIAEYNAPCSKDLGNA

Under protein interaction, `CC(C)[C@H](NC(=O)CNC(=O)CNC(=O)CNC(=O)[C@H](CCCNC(=N)N)NC(=O)[C@H](CCCNC(=N)N)NC(=O)[C@H](CCCNC(=N)N)NC(=O)[C@H](CCC(N)=O)NC(=O)[C@H](CCCNC(=N)N)NC(=O)[C@H](CCCNC(=N)N)NC(=O)[C@H](CCCCN)NC(=O)[C@H](CCCCN)NC(=O)[C@H](CCCNC(=N)N)NC(=O)CNC(=O)[C@@H](N)Cc1ccc(O)cc1)C(=O)N[C@H](C(=O)N[C@H](C(=O)N[C@@H](C)C(=O)O)[C@@H](C)O)C(C)C` is recorded as “inhibited” (ClpP and alpha-synuclein ΔC (human); inhibitor, co-immunoprecipitation; HEK293T cells).
For `NCCS`, the EC50 was 440 ± 90 µM (ELIC G218F; channel gating, agonist, two-electrode voltage clamp; Xenopus oocytes).
For `CC(C)C(N)C(=O)NC(CO)C(O)c1ccc([N+](=O)[O-])cc1` (stereo not shown), the Kd was 34 ± 8 µM (Escherichia coli 70S ribosome; binding, fluorescence polarization; added: BODIPY-erythromycin 4 nM).
The recovery yield of `KWWIWAG` is reported as 57.2% (adeno-associated virus 9; capsid binding, bind-and-elute chromatography; peptide; peptide ligand resin, MgCl2 elution).
For `CCc1c(C(=O)NCCc2ccc(N3CCCCC3)cc2)[nH]c2ccc(Cl)cc12`, ERK1/2 phosphorylation read “no effect” (cannabinoid CB1 receptor; HEK293-A; 1 nM to 10 µM, 10 min, no orthosteric agonist).
`CC(=O)N1CCN(c2ccc(OCC3COC(Cn4ccnc4)(c4ccc(Cl)cc4Cl)O3)cc2)CC1` (stereo not shown) has a remaining activity of 24 ± 1.6% (Leishmania infantum CYP51; concentration not given).
The IC50 of `myricitrin` is reported as 25 µM (class I HDAC (bovine); enzyme activity, inhibitor; bovine heart tissue lysate).
`Cc1cccc(CN2CCN(C(c3ccccc3)c3ccc(Cl)cc3)CC2)c1` (stereo not shown) — result for “deuterium exchange change”: -10% (mouse CAR LBD in CAR:RXR; binding, HDX-MS; concentration not given, 10 to 3600 s, pH 8, 4 °C, residues 330-338, helix H10; reference: unliganded CAR:RXR).
With `CC(=O)N[C@@H](Cc1c[nH]cn1)C(=O)N[C@H](CO)[C@H](O)c1ccc([N+](=O)[O-])cc1` the Kd was 34 ± 5 µM (Escherichia coli 70S ribosome; binding, fluorescence polarization; added: BODIPY-erythromycin 4 nM).
Under “apparent oxytocin concentration”, `α1-acid glycoprotein` is recorded as 3.9 ± 2.3 pg/mL (anti-oxytocin rabbit polyclonal IgG; cross-reactivity, oxytocin EIA, Enzo; 3 µg/mL).
For `CC(C)=CCC/C(C)=C/Cc1c(O)cc(/C=C/c2ccc(O)cc2O)cc1O`, the IC50 was over 25 µg/mL (Sp1 (human); reporter gene, inhibitor; SW1353; control transcription factor).
With `CCCOC(=O)Cc1ccc(OCC(=O)N(CC)CC)c(OC)c1` the EC50 was 26 µM (GABA-A receptor rat; GABA-evoked chloride current, positive allosteric modulator, whole-cell patch clamp; embryonic rat cortical neurons; pH 7.4, holding -60 mV, added: GABA 5 µM).
For `complement C1q`, “apparent oxytocin concentration” read 23.1 ± 3.2 pg/mL (anti-oxytocin rabbit polyclonal IgG; cross-reactivity, oxytocin EIA, Enzo; 3 µg/mL).
`C[C@@H](O)[C@H]1C(=O)N2C(C(=O)O)=C(S[C@@H]3CN[C@H](C(=O)N(C)C)C3)[C@H](C)[C@H]12` gave an apparent IC50 of 5.1 ± 2.7 µM (PBP5/6 Escherichia coli; Bocillin-FL binding, inhibitor; Escherichia coli, MG1655; 30 min, Tris-EDTA permeabilised, added: Bocillin-FL 25 µM).
`CC(=O)NC(C)C(=O)NC(CO)C(O)c1ccc([N+](=O)[O-])cc1` (stereo not shown) has a Kd of 55 ± 13 µM (Escherichia coli 70S ribosome; binding, fluorescence polarization; added: BODIPY-erythromycin 4 nM).
`COC(Cn1ccn2cc(C(=O)NCc3ccc(F)cc3F)c(=O)c(O)c2c1=O)OC` has an EC50 of 0.0033 ± 0.0003 µM (HIV-1 integrase wild type; viral replication; HOS, HIV-1; single-round vector).
The EC50 of `CSS(C)(=O)=O` is reported as about 50 µM (Chlamydomonas reinhardtii arsenite methyltransferase Y72W; Y72W tryptophan fluorescence quenching, fluorescence quenching).
For `C/C1=C/C[C@@H](/C(C)=C/c2csc(C)n2)OC(=O)C[C@H](O)C(C)(C)C(=O)[C@H](C)[C@@H](O)[C@@H](C)CCC1`, the EC50 was 0.44 ± 0.02 µM (tubulin; tubulin assembly, promoter).
For `CC(=O)OCC[N+](C)(C)C`, the EC50 was 33 ± 22 µM (nicotinic acetylcholine receptor, mouse; [3H]GABA release, agonist; superior colliculus synaptosomes; low-sensitivity component).
For `cholecystokinin octapeptide`, the phosphorylation level was 293 ± 24% (Yes kinase, rat; measured: Yes pY416; 100 nM, 1 min, no PKC inhibitor; reference: untreated control).
`GIGKWLHSAKKFGKAFVGEIMNS-NH2 (C-amide)`: “CD slope at 272 nm” -0.113 ± 0.02 (15 bp duplex DNA; DNA binding, near-UV circular dichroism; peptide; room temperature, added: 1.66 µM DNA, peptide titrated).
`[Met(O)35]Aβ42`: “Msr activity increase” 27 ± 11% (methionine sulfoxide reductase (rat); HPLC, dabsyl-Met(O); rat primary cortical neurons; 10 µM, 24 h; reference: untreated cells).
With `NC(Cc1c[nH]c2ccccc12)C(=O)NC(CO)C(O)c1ccc([N+](=O)[O-])cc1` (stereo not shown) the Kd was 12 ± 2 µM (Escherichia coli 70S ribosome; binding, fluorescence polarization; added: BODIPY-erythromycin 4 nM).
`COC(CN1CCn2cc(C(=O)NCc3ccc(F)cc3F)c(=O)c(O)c2C1=O)OC` gave an EC50 of 0.0065 ± 0.0009 µM (HIV-1 integrase wild type; viral replication; HOS, HIV-1; single-round vector).
`B1 (ceruloplasmin)`: “apparent oxytocin concentration” 2.2 ± 0.5 pg/mL (anti-oxytocin rabbit polyclonal IgG; cross-reactivity, oxytocin EIA, Enzo; 3 µg/mL).
With `CCCCCC1=C/C(=C/c2[nH]c(-c3ccc[nH]3)cc2OC)N=C1C` the maximal ΔTm was 7 °C (pre-miR-21 RNA; differential scanning fluorimetry; reference: untreated, positive = stabilisation).
For `B2 (α2-macroglobulin)`, “apparent oxytocin concentration” read 2.1 ± 1.1 pg/mL (anti-oxytocin rabbit polyclonal IgG; cross-reactivity, oxytocin EIA, Enzo; 3 µg/mL).
Under “maximal peptide depletion”, `O=C/C=C/c1ccccc1` is recorded as -17% (lysine-containing peptide; mass spectrometry; 24 h, pH 10.2, room temperature).
With `CC(C)CC(N)C(=O)NC(CO)C(O)c1ccc([N+](=O)[O-])cc1` (stereo not shown) the Kd was 36 ± 6 µM (Escherichia coli 70S ribosome; binding, fluorescence polarization; added: BODIPY-erythromycin 4 nM).
For `CC(=O)C[C@@H](c1ccccc1)c1c(O)c2ccc(O)cc2oc1=O`, the Kss was 1310 µM (UGT; measured: 7-glucuronide; human liver microsomes; second binding site).
With `N[C@H](Cc1c[nH]cn1)C(=O)N[C@H](CO)[C@H](O)c1ccc([N+](=O)[O-])cc1` the Kd was 2.9 ± 0.8 µM (Escherichia coli 70S ribosome; binding, fluorescence polarization; added: BODIPY-erythromycin 4 nM).
For `α1-antitrypsin`, “apparent oxytocin concentration” read 0.5 ± 0.4 pg/mL (anti-oxytocin rabbit polyclonal IgG; cross-reactivity, oxytocin EIA, Enzo; 3 µg/mL).
`NC(=O)CC(N)C(=O)NC(CO)C(O)c1ccc([N+](=O)[O-])cc1` (stereo not shown) has a Kd of 40 ± 26 µM (Escherichia coli 70S ribosome; binding, fluorescence polarization; added: BODIPY-erythromycin 4 nM).
With `Oc1cccc(/C=C/c2ccccc2)c1` the IC50 was over 25 µg/mL (Sp1 (human); reporter gene, inhibitor; SW1353; control transcription factor).

A few entries again:
`CC(=O)NC(C)C(=O)NC(CO)C(O)c1ccc([N+](=O)[O-])cc1` (stereo not shown) has a Kd of 55 ± 13 µM (Escherichia coli 70S ribosome; binding, fluorescence polarization; added: BODIPY-erythromycin 4 nM).
`COC(Cn1ccn2cc(C(=O)NCc3ccc(F)cc3F)c(=O)c(O)c2c1=O)OC` has an EC50 of 0.0033 ± 0.0003 µM (HIV-1 integrase wild type; viral replication; HOS, HIV-1; single-round vector).
The EC50 of `CSS(C)(=O)=O` is reported as about 50 µM (Chlamydomonas reinhardtii arsenite methyltransferase Y72W; Y72W tryptophan fluorescence quenching, fluorescence quenching).
For `C/C1=C/C[C@@H](/C(C)=C/c2csc(C)n2)OC(=O)C[C@H](O)C(C)(C)C(=O)[C@H](C)[C@@H](O)[C@@H](C)CCC1`, the EC50 was 0.44 ± 0.02 µM (tubulin; tubulin assembly, promoter).
